# Measured values collected from several papers.
# Numbered parts are unrelated; each lists some results of a single study. Several values in a cell are separate wells, animals, samples, runs or records.
# Sequence of UniProt O15146 (whole entry, looked up): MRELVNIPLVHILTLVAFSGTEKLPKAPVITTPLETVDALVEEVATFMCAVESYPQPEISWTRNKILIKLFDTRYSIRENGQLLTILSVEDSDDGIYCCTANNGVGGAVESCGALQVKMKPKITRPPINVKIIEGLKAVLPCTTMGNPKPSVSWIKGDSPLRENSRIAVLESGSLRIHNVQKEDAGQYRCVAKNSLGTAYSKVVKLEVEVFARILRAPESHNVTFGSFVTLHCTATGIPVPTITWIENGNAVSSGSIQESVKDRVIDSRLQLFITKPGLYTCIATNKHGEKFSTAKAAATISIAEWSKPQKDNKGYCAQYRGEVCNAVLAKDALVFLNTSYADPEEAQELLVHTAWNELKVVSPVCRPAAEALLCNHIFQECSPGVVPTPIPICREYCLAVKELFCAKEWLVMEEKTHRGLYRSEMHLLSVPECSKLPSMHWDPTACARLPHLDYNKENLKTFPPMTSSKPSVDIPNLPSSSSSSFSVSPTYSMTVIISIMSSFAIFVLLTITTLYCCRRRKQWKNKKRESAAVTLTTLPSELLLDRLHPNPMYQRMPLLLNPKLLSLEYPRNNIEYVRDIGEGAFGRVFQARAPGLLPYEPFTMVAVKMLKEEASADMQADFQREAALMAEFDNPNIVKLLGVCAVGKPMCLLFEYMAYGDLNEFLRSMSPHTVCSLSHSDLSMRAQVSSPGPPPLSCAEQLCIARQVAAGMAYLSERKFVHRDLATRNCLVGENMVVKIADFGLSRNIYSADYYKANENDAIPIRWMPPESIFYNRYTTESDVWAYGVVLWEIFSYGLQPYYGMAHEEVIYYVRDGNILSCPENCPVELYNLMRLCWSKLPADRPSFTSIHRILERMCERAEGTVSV
# Sequence of UniProt P54764 (whole entry, looked up): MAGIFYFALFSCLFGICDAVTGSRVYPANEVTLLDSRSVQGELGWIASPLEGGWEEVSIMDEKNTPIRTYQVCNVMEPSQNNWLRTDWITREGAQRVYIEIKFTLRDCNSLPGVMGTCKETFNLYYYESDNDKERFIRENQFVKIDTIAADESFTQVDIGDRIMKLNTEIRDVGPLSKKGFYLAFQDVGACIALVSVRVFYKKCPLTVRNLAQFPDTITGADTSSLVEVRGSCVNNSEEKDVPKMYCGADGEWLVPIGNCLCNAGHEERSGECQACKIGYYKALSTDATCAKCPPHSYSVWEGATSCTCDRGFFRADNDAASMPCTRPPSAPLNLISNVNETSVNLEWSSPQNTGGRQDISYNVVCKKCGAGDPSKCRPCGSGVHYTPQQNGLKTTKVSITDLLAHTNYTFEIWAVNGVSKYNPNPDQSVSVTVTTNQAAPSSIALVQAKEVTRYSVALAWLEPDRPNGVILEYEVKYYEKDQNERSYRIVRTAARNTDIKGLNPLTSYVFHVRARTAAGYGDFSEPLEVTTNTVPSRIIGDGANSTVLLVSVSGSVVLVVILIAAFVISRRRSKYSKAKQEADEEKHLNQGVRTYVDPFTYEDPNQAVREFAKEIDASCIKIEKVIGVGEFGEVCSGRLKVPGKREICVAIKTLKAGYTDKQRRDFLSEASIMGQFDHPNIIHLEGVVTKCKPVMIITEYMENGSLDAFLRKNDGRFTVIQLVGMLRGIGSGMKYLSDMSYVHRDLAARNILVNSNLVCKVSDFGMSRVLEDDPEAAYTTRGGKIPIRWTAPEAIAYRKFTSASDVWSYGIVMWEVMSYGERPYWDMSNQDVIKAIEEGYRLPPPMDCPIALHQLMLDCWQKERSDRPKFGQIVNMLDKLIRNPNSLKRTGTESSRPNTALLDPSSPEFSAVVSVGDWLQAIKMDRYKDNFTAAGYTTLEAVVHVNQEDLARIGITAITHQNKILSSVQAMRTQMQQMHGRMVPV
# Sequence of UniProt Q8WXR4 (whole entry, looked up): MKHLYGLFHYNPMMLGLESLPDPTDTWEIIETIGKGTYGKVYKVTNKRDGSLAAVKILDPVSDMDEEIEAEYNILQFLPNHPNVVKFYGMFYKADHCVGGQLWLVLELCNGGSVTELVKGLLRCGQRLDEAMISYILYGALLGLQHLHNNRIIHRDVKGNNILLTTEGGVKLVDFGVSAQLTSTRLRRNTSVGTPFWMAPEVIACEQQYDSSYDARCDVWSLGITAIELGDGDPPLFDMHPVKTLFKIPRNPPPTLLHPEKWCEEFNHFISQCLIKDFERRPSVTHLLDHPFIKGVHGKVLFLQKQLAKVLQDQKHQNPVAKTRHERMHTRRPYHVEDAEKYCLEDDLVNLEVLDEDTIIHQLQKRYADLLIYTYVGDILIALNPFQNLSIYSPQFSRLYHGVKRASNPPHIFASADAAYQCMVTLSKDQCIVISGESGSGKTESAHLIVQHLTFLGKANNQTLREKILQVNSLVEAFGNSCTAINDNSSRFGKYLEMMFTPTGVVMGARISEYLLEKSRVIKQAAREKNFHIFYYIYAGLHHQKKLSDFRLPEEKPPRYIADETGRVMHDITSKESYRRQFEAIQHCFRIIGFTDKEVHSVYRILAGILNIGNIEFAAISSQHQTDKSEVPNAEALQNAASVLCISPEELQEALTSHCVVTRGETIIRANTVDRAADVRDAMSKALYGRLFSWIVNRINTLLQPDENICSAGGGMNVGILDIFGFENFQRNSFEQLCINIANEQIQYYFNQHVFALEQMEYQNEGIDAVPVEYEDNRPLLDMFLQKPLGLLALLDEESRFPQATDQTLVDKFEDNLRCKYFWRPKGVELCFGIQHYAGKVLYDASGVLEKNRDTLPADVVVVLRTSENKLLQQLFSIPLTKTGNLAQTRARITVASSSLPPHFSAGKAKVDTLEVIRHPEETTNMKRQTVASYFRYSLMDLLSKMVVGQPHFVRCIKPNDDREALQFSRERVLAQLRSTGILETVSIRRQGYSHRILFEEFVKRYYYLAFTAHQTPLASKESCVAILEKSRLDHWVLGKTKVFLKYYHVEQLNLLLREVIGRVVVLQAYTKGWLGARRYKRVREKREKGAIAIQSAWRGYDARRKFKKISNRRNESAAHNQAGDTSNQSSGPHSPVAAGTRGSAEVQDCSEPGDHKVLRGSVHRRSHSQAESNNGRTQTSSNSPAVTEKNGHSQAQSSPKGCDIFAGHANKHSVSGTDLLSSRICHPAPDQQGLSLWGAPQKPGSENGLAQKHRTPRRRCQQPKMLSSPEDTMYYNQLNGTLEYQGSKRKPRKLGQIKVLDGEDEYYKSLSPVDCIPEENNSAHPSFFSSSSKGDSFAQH

# Set 1 — effect on: enzyme activity; tested at: 10 µM; relative to: untreated control
# SMILES: Cc1sc(C(=O)NC2COC2)cc1-n1cc(NC(=O)Nc2c(F)cccc2Cl)cn1
target,remaining activity [%]
"Dual specificity protein kinase CLK1 (CLK1, Homo sapiens, UniProt P49759)",96.8
"Ribosomal protein S6 kinase alpha-2 (RPS6KA2, Homo sapiens, UniProt Q15349)",94.1
"Activin receptor type-1-like (ACVRL1, Homo sapiens, UniProt P37023)",78.6
"Serine/threonine-protein kinase N1 (PKN1, Homo sapiens, UniProt Q16512)",73.9
"Insulin-like growth factor 1 receptor (IGF1R, Homo sapiens, UniProt P08069)",102
"Serine/threonine-protein kinase 25 (STK25, Homo sapiens, UniProt O00506)",69.2
"Serine/threonine-protein kinase 33 (STK33, Homo sapiens, UniProt Q9BYT3)",87.5
"RAC-gamma serine/threonine-protein kinase (AKT3, Homo sapiens, UniProt Q9Y243)",94.2
"Myosin-IIIb (MYO3B, Homo sapiens, UniProt Q8WXR4)",78.7
"Mitogen-activated protein kinase 12 (MAPK12, Homo sapiens, UniProt P53778)",80.8
"Calcium/calmodulin-dependent protein kinase type II subunit delta (CAMK2D, Homo sapiens, UniProt Q13557)",90.4

# Set 2 — effect on: enzyme activity; mode: inhibitor; tested at: 0.5 µM; relative to: control
# Target: SRSF protein kinase 2 (SRPK2, Homo sapiens, UniProt P78362)
# Sequence of UniProt P78362 (whole entry, looked up): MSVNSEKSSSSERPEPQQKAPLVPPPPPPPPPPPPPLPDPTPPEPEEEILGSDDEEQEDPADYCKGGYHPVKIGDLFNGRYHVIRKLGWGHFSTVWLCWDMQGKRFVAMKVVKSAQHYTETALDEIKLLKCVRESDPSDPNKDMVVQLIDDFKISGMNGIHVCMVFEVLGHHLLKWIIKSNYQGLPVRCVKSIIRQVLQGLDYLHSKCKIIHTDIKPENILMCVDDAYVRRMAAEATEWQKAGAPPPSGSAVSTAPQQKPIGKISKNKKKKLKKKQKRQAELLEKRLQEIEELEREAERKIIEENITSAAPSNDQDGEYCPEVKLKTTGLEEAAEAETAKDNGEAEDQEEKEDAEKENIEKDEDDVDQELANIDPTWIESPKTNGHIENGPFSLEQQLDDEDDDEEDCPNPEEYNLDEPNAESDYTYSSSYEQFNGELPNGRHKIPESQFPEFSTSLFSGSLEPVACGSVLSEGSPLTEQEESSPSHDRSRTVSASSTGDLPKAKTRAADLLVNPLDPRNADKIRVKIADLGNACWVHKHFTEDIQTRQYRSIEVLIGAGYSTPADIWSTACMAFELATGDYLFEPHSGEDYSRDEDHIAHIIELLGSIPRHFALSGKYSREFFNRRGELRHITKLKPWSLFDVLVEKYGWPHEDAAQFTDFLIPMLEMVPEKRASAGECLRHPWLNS
SMILES,remaining activity [%]
Cc1cc(Nc2nc(-c3ccccc3)nc3ccccc23)n[nH]1,68.8
Oc1ccc(Nc2nc(-c3ccc(Cl)cc3)cs2)cc1,104
Nc1nccc(-c2c(-c3ccc(F)cc3)ncn2C2CCNCC2)n1,96.4
CSc1nc(-c2ccnc(N[C@@H](C)c3ccccc3)c2)c(-c2ccc(F)cc2)[nH]1 (racemic),94.4
CC(C)(C)n1nc(Cc2cccc3ccccc23)c2c(N)ncnc21,92.4
COc1ccc(S(=O)(=O)N(CCO)c2ccccc2CN(C)CC=Cc2ccc(Cl)cc2)cc1,98.5
CCCC(=O)Oc1ccc2[nH]c(C(=O)c3cc4ccccc4[nH]3)cc2c1,89.4
O=C1NC(=O)C(c2c[nH]c3ccccc23)=C1c1c[nH]c2ccccc12,84.3
CC(=O)c1ccc(N2CCOCC2)cc1O,98.6
COc1cc(Nc2c(C#N)cnc3cc(OCCCN4CCN(C)CC4)c(OC)cc23)c(Cl)cc1Cl,101
O=S(=O)(NCCNC/C=C/c1ccc(Br)cc1)c1cccc2cnccc12,88.3
CC[n+]1c(/C=C/N(C)c2ccccc2)n(-c2ccccc2)c2ccc(-c3nc4ccccc4s3)cc21,105
Nc1nc(Nc2ccc(S(N)(=O)=O)cc2)nn1C(=O)c1c(F)cccc1F,54.9
Nc1ncnc2c1cnn2-c1ccccc1,104
CC#CC(=O)Nc1cc2c(Nc3ccc(F)c(Cl)c3)ncnc2cn1,69.2
CCc1[nH]c(-c2ccc(OC)cc2)nc1-c1ccncc1,101
Cc1cncc2cccc(S(=O)(=O)N3CCCN(C(=O)CN)C[C@@H]3C)c12,97.1
O=C1Cc2c([nH]c3ccc([N+](=O)[O-])cc23)-c2ccccc2N1,109
Cc1ccc(NC2=CC(=O)c3sc(C)nc3C2=O)cc1,101
N#CC(=C(N)Sc1ccc(N)cc1)c1ccccc1C(F)(F)F,99.5

# Set 3 — tested at: 10 µM
# Compound: CCc1c(C)nc(SCC(=O)Nc2nc(-c3ccc(OC)cc3)cs2)[nH]c1=O
# ANO1 del476-501: Anoctamin-1 (ANO1, Homo sapiens, UniProt Q5XXA6, del476-501)
# Sequence of UniProt Q5XXA6 (whole entry, unmodified, looked up): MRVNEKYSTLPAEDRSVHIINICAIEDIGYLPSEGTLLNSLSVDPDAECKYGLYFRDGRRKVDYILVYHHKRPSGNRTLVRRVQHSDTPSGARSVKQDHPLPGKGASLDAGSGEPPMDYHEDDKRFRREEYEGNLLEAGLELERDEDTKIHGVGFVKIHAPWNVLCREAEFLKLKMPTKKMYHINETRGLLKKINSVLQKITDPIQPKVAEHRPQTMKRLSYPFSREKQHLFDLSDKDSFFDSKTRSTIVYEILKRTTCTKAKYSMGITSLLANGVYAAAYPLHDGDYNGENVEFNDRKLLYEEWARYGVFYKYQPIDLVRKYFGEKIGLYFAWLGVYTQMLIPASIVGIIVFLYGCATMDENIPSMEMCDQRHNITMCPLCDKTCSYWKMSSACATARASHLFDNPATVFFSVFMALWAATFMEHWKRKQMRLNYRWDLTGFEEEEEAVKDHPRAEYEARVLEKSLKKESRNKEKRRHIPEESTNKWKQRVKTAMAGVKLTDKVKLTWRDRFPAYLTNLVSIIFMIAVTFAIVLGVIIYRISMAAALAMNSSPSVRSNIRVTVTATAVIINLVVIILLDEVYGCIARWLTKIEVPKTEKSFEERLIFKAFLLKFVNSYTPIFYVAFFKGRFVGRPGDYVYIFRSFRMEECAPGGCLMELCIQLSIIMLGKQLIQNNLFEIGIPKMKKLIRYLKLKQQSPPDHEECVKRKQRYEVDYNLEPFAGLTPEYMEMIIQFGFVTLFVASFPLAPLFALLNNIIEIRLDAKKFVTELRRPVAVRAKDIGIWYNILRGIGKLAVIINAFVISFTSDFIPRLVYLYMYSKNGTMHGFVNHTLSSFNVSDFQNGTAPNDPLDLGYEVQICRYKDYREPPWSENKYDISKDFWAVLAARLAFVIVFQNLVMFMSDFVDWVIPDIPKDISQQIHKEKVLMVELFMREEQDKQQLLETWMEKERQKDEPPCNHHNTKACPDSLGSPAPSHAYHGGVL
# ANO1 del476-501/R541A: Anoctamin-1 (ANO1, Homo sapiens, UniProt Q5XXA6, del476-501/R541A)
# ANO1 del476-501/F628A/F803A: Anoctamin-1 (ANO1, Homo sapiens, UniProt Q5XXA6, del476-501/F628A/F803A)
target,assay,system,setting,scale,normalized current
ANO1 del476-501,"chloride current, inhibitor",human,wild type,,0.594
ANO1 del476-501/R541A,"chloride current, inhibitor, whole-cell patch clamp",,R515A pore mutant,,0.974 and 1.03 and 0.983 and 1 and 0.982 and 0.985 and 0.96
ANO1 del476-501,"ion current, patch clamp",,,relative to: before drug,0.587 and 0.596 and 0.55 and 0.619
ANO1 del476-501/F628A/F803A,"chloride current, inhibitor",human,"mutant, non-pore, F602A/F777A",,0.62
ANO1 del476-501/R541A,"chloride current, inhibitor",human,pore mutant R515A,,0.994
ANO1 del476-501/F628A/F803A,"chloride current, inhibitor, whole-cell patch clamp",,F602A/F777A non-pore mutant,,0.603 and 0.605 and 0.585 and 0.655 and 0.636 and 0.638

# Set 4 — effect on: cell-free assay; technique: competition with immobilised ligand; tested at: 1 µM
# SMILES: CN(C)c1ncnc(-c2ccc3nc(Nc4cc(CN5CCN(C(=O)CC(F)(F)F)CC5)ccn4)[nH]c3c2)c1Cl
target,remaining binding [%]
"Serine/threonine-protein kinase WNK1 (WNK1, Homo sapiens, UniProt Q9H4A3)",86
"Phosphatidylinositol 4,5-bisphosphate 3-kinase catalytic subunit alpha isoform (PIK3CA, Homo sapiens, UniProt P42336, M1043I)",56
"Mitogen-activated protein kinase kinase kinase 20 (MAP3K20, Homo sapiens, UniProt Q9NYL2)",65
"Ephrin type-A receptor 4 (EPHA4, Homo sapiens, UniProt P54764)",92
"Phosphatidylinositol 5-phosphate 4-kinase type-2 gamma (PIP4K2C, Homo sapiens, UniProt Q8TBX8)",95
"Muscle, skeletal receptor tyrosine-protein kinase (MUSK, Homo sapiens, UniProt O15146)",100
"Leucine-rich repeat serine/threonine-protein kinase 2 (LRRK2, Homo sapiens, UniProt Q5S007)",84
"Mitogen-activated protein kinase kinase kinase 12 (MAP3K12, Homo sapiens, UniProt Q12852)",64
"Serine/threonine-protein kinase ULK1 (ULK1, Homo sapiens, UniProt O75385)",75
"Mast/stem cell growth factor receptor Kit, autoinhibited (KIT, Homo sapiens, UniProt P10721)",96
"Myosin light chain kinase (MYLK3, Homo sapiens, UniProt Q32MK0)",90
"Serine/threonine-protein kinase ULK2 (ULK2, Homo sapiens, UniProt Q8IYT8)",64
"Protein kinase C theta type (PRKCQ, Homo sapiens, UniProt Q04759)",100
"Calcium/calmodulin-dependent protein kinase type 1D (CAMK1D, Homo sapiens, UniProt Q8IU85)",100
"Serine/threonine-protein kinase 32B (STK32B, Homo sapiens, UniProt Q9NY57)",100
"Homeodomain-interacting protein kinase 4 (HIPK4, Homo sapiens, UniProt Q8NE63)",100
"Rhodopsin kinase GRK1 (GRK1, Homo sapiens, UniProt Q15835)",90
